Published values gathered from unrelated publications.
A part holds a random share of what one study measured.

Study 1
Target: RNA binding protein fox-1 homolog 2, RRM domain, GST-SBP tag (RBFOX2, Homo sapiens, UniProt O43251-10, residues 100-194)
Method: RNA Bind-n-Seq
Form: RNA
Medium: in vitro
Concentration: 365 nM
Notes: natural RNA segment, single round, ends assumed
Reference: no-protein control
Reading: higher = stronger binding
Construct (chain): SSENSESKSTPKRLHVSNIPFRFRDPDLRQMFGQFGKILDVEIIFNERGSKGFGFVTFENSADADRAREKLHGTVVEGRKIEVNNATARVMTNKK
`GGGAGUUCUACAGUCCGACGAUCCAGAAGAAUGGGAGAUGAGUAGGGACCCCUCAAGCACAGCUGUCACUCAGAAAUUUUAAAUUUGAAAAAGAAAUCGAUUUUCAUCUGUAUGCCGUCAAGGAAGGAAUUCAUGGAAUUCUCGGGUGCCAA`: “RBNS enrichment (R)” 0.439.
Under “RBNS enrichment (R)”, `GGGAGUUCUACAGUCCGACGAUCUUCCCCUCGUGUGAGCCCAGCCUGUGGUCUUCUCCGUACCCGCAACGUGGUCAUCUGUGCCCGUGACGUCACCUGUGCCCGUGCGUGGCGUCCCCGUCUCCGUUGGGGCCUGGAAUUCUCGGGUGCCAA` is recorded as 2.86.
For `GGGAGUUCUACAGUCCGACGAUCUGCUCAGUUCCCAGGUGGUUGUGUGGGUGUGUGUGCGUGCAUGUGCCCGUCCGGUAAACUAUGGUCCUGGGUGCCCAGUUGUGCAGUAGGGGGAGAAGCUGAAAGAUAAGUGGAAUUCUCGGGUGCCAA`, “RBNS enrichment (R)” read 0.879.
`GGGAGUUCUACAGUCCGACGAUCGGAGAGGCCUGUGCACUGCUGAAGUUCUUGCUGAUGAUUCUAGCUGUAAACCUUUGUUGCCGCCGCAGGAAGCUGAGGCCAGCUUGUGUGUGAGCACUGGAGUGUCCAGAUGGAAUUCUCGGGUGCCAA`: “RBNS enrichment (R)” 0.424.
`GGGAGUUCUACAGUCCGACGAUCUGCCCUGUACUGCCCUCUGACUCCACUGUCACCCGACACCCCUCCCCCAUAUUCAGCCACCUGCUGCACCAGGAAGAGGGUGUGAAAGAUUGUGCAUCUGCAUUCAACUAUGGAAUUCUCGGGUGCCAA` — result for “RBNS enrichment (R)”: 0.641.
Under “RBNS enrichment (R)”, `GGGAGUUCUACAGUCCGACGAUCCUUCUAUAUGAGUGUUUUAACCCUCAGCAUUCUGUGGUCAGGAAGAUAAAAGCAUCUGCAGGUCCCUCCAAGACGAGAAGAGCAACAUCAUGCUCUUUGCUUCUGUCUAUUGGAAUUCUCGGGUGCCAA` is recorded as 0.329.
`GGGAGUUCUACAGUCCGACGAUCUUCCCCAGUCCAGGGCUCCCCUGCUCCUUUCCCUUCCCUGUACUGGGGUAGCUCCUGCCUGCUCUCCCUGCGUUGCCUAGGGUAAAGCCUCCAGAUUUGCCAUACUGAGCUGGAAUUCUCGGGUGCCAA` — result for “RBNS enrichment (R)”: 1.36.
`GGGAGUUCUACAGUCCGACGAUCUGCUGUAUUGGUAUUUGUCUGUUGGGAUUUCAAGGGAGUGUAGAGAAGACAGAAGGAAAGCUGAGAGCUGGCCCGACAUGGUCUGGGACACAGAGUUGGAGCUGGCACUGUGGAAUUCUCGGGUGCCAA` — result for “RBNS enrichment (R)”: 0.955.
`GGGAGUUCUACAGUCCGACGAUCUAAACUGUGAACUCUGCCCAUGUGUCAGGAGUGGCUGUCUCUGGUCUCUUCCUUUAGCUGACAAGGACACUCCUGAGGUCUUUGUUCUCACUGUAUUCUUUUUAUCCUGGUGGAAUUCUCGGGUGCCAA`: “RBNS enrichment (R)” 0.652.

Study 2
Target: Histone acetyltransferase KAT6A, both winged helices, GST fusion (KAT6A, Homo sapiens, UniProt Q92794, residues 1-181)
Method: protein binding microarray
Form: double-stranded DNA, one strand shown
Medium: in vitro
Concentration: not given
Notes: 8-mer, flanks averaged, mean of 2 arrays, mostly near background
Reference: not given
Reading: higher = stronger binding
Target sequence (chain): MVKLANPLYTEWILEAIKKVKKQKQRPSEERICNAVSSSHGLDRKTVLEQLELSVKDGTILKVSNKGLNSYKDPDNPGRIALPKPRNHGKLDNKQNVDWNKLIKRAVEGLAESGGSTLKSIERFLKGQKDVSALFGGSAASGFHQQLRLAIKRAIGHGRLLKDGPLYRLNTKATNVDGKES
`TCCATAGA` gave an E-score of -0.0225.
`ATCGCTCC` gave an E-score of 0.187.
`ATAACCGC` gave an E-score of 0.208.
For `TGTACCAA`, the E-score was 0.0109.
For `AAATGATC`, the E-score was -0.119.
For `ACACGGGA`, the E-score was 0.142.
`GGGCACGA` has an E-score of -0.0502.
For `TAACCTGA`, the E-score was -0.157.
`CTTGTAAC` has an E-score of 0.0267.
The E-score of `CGTGTATC` is reported as 0.12.
`CTTGTTAA` has an E-score of -0.0697.
`AAGCGCAC` gave an E-score of 0.267.
The E-score of `TAGCTCAA` is reported as -0.169.
`ATACTGTC` has an E-score of -0.116.
The E-score of `TAGTCAGA` is reported as -0.118.
`AGGGTAGA` has an E-score of -0.0762.
For `CCAGCACA`, the E-score was -0.191.
For `CATGTTAA`, the E-score was -0.00691.
`CAGGTACG` has an E-score of 0.0843.
`AGATACAA` gave an E-score of 0.00447.
The E-score of `CTAGAACC` is reported as -0.0465.
`CGGATCAG` gave an E-score of 0.0427.

Study 3
Target: RING finger protein unkempt homolog, zinc fingers 1-6, GST-SBP tag (UNK, Homo sapiens, UniProt Q9C0B0, residues 30-357)
Sequence of UniProt Q9C0B0 (30-357, looked up): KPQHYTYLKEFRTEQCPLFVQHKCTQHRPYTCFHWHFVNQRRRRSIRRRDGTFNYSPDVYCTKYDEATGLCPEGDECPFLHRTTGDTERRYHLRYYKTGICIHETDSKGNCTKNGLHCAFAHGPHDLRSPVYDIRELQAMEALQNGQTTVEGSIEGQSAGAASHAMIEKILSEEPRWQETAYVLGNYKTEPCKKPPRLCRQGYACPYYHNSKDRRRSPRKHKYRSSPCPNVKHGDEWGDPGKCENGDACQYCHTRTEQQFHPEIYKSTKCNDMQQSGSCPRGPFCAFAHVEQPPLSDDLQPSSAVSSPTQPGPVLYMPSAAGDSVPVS
Method: RNA Bind-n-Seq
Form: RNA
Medium: in vitro
Concentration: not given
Notes: RNA with constant flanks, human and mouse sites, ends assumed
Reference: input RNA pool
Reading: higher = stronger binding
`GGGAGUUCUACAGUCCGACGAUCUGCUACCAACAGCCUAAGGGGGGGUCAAGGGACUCUCGUCUUUUAUAAGUUUUUGAUUUUUUUUAAACAGGGAUUAACCCCAUGGCCAUUUUUUGUGGUACUCUGGCCUCAAAACUUUAACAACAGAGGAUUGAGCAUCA` gave a bound/input enrichment of 1.04 ratio.
For `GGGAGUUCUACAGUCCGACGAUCCAGGACCCCCCUCUCGCUCCCCCUCAUCGGCGGCGUCGUAGCCGCCAACAUCCCGGGCCGCUGCCUCCAACGAAUGCCGCCCCAACCGUCCCGGGCCCUGUUGAACCUCUGCUCCUGCCGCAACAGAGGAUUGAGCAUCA`, the bound/input enrichment was 0.291 ratio.
For `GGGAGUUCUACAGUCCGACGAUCGGAUAGCGAGCCGCGCUGGCGGCGGCGGUGGCCGCGAUGAUGGAGAUCCAGAUGGACGAGGGCGGCGGCGUGGUGGUGUACCAGGACGACUACUGCUCCGGCUCGGUGAUGUCGGAGCGGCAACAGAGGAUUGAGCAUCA`, the bound/input enrichment was 0.3 ratio.
For `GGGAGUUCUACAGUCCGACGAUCUCCGGGCAGAAUGAGGAGUCUCCUCGGAAACGAAAAAAGGCCACGGAAGCCAUAGACUCUCUUAGGAAAUCUAAACGUCUUCGGAAUAGAAAGUAAAUUGGAAUGUGGUUCUAGUUCCAGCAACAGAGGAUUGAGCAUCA`, the bound/input enrichment was 4.65 ratio.
For `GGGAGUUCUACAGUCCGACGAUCAGCUGGGAUUACAGGCAUGCGCCACCAUGCCCGGCUAAUGUUGUAUUUUUAGUAGAGAUGGGGUUUCUCUCAUGUUGGUCAGGCUGGUCUCAAACUCCCAACCUCAGGUGAUUCGCCCGCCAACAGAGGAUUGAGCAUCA`, the bound/input enrichment was 0.603 ratio.
For `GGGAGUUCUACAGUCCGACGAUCACUUGGAGAGGAUUAUCUUUGAGCCAAGAUUUGGACAGGAGUGAAGUCGGUCCUUAAGAAUUUGUGGCGCGACCGGAGCUGGGCUCCUGACAGGUGGGCUUGUGUUGUGUCCCCUCUGAUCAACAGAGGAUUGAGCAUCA`, the bound/input enrichment was 0.271 ratio.
`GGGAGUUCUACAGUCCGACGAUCGAAAGGGACGGUGGGACCAGUUACUCUCCACAAGAAAACUCACACAACCACAGUGCACUUCAUAGUUCAAAUUCACAUUCUUCUAAUCCAAGCAAUAAUCCAAGCAAAACUUCAGAUGCACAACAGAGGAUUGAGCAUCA` has a bound/input enrichment of 1.54 ratio.
`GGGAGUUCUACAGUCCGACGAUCGAGGAAAAAAAUCCAACUUCAAGCUCUUUGCACUAGUGAUGAUUAUGUGAUAUAUCAAUGUAAUAUUUAGCCAGUGGUCAUUAGAUGUUACUGUGCUUAAACACAUCUGAUACUCAUGCACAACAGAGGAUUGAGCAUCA` has a bound/input enrichment of 0.317 ratio.

Study 4
Target: Cyclic AMP-dependent transcription factor ATF-1, full length (ATF1, Homo sapiens, UniProt P18846, residues 1-271)
Method: protein-binding microarray
Form: hairpin DNA
Medium: in vitro
Concentration: not given
Notes: whole hairpin DNA, median over replicate spots
Reference: not given
Reading: higher = stronger binding
Target sequence (chain): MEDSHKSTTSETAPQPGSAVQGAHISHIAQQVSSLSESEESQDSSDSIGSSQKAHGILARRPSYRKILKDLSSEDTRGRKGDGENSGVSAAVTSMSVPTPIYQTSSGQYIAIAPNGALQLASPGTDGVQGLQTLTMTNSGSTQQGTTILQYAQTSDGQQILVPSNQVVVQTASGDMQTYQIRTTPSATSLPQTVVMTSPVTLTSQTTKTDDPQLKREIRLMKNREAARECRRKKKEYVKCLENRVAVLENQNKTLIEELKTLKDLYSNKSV
The median fluorescence of `GAGGCCGGCTGGCGTCAGCCTCCTGGCTGACGCCAGCCGGCCTCACACTC` is reported as 3800 a.u.
The median fluorescence of `GAGGCCGGAAGACGTCAGCCTCCTGGCTGACGTCTTCCGGCCTCACACTC` is reported as 4540 a.u.
With `GAGGCCGGCTGACGTGAGCCTCCTGGCTCACGTCAGCCGGCCTCACACTC (5mC at 29)` the median fluorescence was 5510 a.u.
For `GAGGCCGGATGACGACAGCCTCCTGGCTGTCGTCATCCGGCCTCACACTC`, the median fluorescence was 5990 a.u.
With `GAGGCCGGATGACGCGAGCCTCCTGGCTCGCGTCATCCGGCCTCACACTC (5mC at 15)` the median fluorescence was 10300 a.u.
With `GAGGCCGGATGACCTCAGCCTCCTGGCTGAGGTCATCCGGCCTCACACTC (5mC at 14)` the median fluorescence was 3110 a.u.
`GAGGCCGGCTGACCGCAGCCTCCTGGCTGCGGTCAGCCGGCCTCACACTC` has a median fluorescence of 3460 a.u.
For `GAGGCCGACGACGCGGTGCCTCCTGGCACCGCGTCGTCGGCCTCACACTC (5mC at 9 14 29 30 35)`, the median fluorescence was 5230 a.u.
For `GAGGCCGACGAAGTCGTGCCTCCTGGCACGACTTCGTCGGCCTCACACTC (5mC at 9 15 29 35)`, the median fluorescence was 2940 a.u.
The median fluorescence of `GAGGCCGACGACGTCCTGCCTCCTGGCAGGACGTCGTCGGCCTCACACTC (5mC at 9 15 16 35)` is reported as 3650 a.u.
For `GAGGCCGGATGACGGCAGCCTCCTGGCTGCCGTCATCCGGCCTCACACTC (5mC at 30)`, the median fluorescence was 4690 a.u.
`GAGGCCGACGACGCGGTGCCTCCTGGCACCGCGTCGTCGGCCTCACACTC (5mC at 9 29 35)` has a median fluorescence of 4290 a.u.
`GAGGCCGACCACGTCGTGCCTCCTGGCACGACGTGGTCGGCCTCACACTC (5mC at 9 15 29)` gave a median fluorescence of 4470 a.u.
With `GAGGCCAGATGACGTCAGCCTCCTGGCTGACGTCATCTGGCCTCACACTC` the median fluorescence was 13900 a.u.
For `GAGGCCGGCTGAGGTCAGCCTCCTGGCTGACCTCAGCCGGCCTCACACTC`, the median fluorescence was 3350 a.u.
The median fluorescence of `GAGGCCGGATGACGTCAGCCTCCTGGCTGACGTCATCCGGCCTCACACTC (5mC at 13)` is reported as 6010 a.u.
`GAGGCCGGCTGAAGTCAGCCTCCTGGCTGACTTCAGCCGGCCTCACACTC` gave a median fluorescence of 3140 a.u.
